# Measured values collected from several papers.
# A part holds a random share of what one study measured.
# UniProt Q9NSY1, sequence (whole entry, looked up): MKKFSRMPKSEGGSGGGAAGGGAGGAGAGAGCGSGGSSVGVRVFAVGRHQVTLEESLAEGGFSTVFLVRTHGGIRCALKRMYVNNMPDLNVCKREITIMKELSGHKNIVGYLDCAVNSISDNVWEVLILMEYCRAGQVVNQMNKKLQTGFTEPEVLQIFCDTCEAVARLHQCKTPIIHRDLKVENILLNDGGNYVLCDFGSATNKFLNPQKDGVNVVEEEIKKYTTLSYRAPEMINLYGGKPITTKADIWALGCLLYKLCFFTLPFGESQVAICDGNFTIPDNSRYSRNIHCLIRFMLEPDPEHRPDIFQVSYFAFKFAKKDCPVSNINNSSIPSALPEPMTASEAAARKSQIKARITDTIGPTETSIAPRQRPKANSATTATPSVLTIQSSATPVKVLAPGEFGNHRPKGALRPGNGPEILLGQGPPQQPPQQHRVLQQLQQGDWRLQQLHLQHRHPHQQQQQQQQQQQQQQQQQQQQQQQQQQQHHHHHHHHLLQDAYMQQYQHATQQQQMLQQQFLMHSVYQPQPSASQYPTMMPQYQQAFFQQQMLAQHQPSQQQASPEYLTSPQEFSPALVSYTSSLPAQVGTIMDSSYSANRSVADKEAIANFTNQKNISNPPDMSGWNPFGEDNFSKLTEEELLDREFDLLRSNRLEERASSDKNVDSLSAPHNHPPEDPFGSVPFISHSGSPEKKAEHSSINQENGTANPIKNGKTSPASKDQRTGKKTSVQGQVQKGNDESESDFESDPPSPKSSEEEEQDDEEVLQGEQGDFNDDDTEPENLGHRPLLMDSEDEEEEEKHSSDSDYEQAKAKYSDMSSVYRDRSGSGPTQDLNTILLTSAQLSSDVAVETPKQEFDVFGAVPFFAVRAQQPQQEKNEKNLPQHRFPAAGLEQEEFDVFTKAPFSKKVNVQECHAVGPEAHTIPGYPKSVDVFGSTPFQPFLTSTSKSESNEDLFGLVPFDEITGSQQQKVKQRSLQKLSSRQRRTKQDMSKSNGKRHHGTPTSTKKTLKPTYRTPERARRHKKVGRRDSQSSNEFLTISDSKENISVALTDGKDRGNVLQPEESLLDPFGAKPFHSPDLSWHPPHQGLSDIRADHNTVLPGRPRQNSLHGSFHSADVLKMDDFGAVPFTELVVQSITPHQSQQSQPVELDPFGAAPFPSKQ
# UniProt P78368, sequence (whole entry, looked up): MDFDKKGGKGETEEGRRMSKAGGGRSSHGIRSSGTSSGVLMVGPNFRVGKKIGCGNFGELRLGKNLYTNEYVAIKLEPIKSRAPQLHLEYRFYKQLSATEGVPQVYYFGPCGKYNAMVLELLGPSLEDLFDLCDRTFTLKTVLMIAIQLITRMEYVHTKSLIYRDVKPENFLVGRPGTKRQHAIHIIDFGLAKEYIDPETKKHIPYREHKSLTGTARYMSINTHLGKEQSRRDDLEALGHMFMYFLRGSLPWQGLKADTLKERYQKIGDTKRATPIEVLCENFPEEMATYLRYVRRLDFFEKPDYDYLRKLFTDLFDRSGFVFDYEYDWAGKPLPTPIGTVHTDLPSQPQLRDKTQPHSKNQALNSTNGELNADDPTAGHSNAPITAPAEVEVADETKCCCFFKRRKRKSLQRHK
# UniProt Q02763, sequence (whole entry, looked up): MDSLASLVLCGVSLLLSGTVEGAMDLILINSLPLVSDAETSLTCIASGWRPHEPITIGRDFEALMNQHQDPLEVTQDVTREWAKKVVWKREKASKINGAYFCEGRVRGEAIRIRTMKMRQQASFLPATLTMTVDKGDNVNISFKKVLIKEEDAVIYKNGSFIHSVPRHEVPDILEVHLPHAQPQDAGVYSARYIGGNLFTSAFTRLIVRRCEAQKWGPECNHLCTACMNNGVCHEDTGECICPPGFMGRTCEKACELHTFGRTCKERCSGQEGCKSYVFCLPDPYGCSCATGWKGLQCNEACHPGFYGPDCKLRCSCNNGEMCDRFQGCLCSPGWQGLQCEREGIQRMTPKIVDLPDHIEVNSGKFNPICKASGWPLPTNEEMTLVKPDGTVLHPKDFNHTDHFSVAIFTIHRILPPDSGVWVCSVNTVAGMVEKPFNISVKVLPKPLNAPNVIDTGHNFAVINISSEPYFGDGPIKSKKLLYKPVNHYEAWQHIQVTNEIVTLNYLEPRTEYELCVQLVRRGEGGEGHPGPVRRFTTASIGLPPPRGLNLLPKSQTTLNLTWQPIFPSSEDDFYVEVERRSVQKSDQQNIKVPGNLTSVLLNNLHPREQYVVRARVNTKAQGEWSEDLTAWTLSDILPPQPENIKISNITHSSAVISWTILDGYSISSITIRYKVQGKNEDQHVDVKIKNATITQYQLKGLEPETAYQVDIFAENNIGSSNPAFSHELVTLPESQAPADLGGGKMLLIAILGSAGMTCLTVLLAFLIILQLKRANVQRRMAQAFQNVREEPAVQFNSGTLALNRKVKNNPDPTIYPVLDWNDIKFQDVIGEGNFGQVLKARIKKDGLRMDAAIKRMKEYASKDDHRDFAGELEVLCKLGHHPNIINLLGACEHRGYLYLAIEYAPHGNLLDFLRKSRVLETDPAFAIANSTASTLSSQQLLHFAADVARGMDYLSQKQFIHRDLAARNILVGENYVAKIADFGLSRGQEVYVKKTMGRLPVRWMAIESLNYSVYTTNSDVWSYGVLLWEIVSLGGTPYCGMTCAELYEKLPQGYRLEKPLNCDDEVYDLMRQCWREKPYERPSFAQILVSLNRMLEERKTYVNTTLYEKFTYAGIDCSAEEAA
# UniProt O15111, sequence (whole entry, looked up): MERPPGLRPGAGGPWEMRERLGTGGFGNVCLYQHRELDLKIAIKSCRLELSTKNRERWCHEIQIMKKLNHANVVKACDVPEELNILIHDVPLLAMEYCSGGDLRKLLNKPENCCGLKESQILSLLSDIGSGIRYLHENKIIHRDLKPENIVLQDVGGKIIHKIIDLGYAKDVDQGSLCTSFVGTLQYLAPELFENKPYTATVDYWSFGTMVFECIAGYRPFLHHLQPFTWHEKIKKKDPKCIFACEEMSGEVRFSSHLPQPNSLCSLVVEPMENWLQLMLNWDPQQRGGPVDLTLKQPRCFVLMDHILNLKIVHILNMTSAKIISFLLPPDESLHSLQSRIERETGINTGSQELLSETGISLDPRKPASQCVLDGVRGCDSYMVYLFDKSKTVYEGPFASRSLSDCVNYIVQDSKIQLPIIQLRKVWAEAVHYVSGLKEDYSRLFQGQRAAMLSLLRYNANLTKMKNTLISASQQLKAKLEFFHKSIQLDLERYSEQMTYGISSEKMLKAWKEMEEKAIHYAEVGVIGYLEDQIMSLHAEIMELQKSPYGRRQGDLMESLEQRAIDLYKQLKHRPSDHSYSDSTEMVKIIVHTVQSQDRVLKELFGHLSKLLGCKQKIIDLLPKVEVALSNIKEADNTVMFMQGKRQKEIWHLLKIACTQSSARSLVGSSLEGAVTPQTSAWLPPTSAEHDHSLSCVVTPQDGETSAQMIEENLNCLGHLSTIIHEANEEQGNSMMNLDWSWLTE
# UniProt P36896, sequence (whole entry, looked up): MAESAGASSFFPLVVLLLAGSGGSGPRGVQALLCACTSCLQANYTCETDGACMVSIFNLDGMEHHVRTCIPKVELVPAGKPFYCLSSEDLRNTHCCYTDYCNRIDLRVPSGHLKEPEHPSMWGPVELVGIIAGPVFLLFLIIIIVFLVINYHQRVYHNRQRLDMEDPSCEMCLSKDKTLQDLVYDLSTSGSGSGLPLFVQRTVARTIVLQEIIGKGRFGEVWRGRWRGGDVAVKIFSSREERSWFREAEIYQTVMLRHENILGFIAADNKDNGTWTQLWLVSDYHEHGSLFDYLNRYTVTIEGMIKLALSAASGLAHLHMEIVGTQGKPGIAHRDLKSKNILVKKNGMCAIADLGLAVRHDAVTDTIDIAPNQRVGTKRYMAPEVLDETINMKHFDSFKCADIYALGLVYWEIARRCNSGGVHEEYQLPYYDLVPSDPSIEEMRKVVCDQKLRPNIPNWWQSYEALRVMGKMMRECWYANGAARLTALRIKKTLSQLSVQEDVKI
# UniProt P42685, sequence (whole entry, looked up): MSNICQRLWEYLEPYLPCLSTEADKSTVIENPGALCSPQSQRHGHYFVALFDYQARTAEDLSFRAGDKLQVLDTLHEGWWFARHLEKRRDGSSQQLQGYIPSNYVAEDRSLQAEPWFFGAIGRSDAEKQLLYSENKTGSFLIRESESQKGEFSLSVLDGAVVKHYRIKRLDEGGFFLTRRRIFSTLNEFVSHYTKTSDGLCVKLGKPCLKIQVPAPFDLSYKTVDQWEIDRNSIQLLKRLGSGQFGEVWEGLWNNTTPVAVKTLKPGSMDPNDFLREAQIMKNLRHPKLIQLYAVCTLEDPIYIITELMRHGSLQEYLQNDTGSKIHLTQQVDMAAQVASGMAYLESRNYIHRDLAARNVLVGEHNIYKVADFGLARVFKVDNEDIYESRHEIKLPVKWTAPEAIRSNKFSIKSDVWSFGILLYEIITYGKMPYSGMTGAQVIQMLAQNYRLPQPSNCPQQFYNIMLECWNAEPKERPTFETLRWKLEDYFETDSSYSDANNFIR

# Series 1 — effect on: cell-free assay; technique: competition with immobilised ligand; tested at: 1 µM
# SMILES: COc1ccc2c(O[C@@H]3C[C@H]4C(=O)N[C@]5(C(=O)O)CC5/C=C\CCCCC[C@H](NC(=O)OC5CCCC5)C(=O)N4C3)cc(-c3csc(NC(=O)C(C)C)n3)nc2c1C (some centres unmarked)
target,remaining binding [%]
"MAP3K19 (Homo sapiens, UniProt Q56UN5)",70
"BMP2K (Homo sapiens, UniProt Q9NSY1)",90
"PRKD3 (Homo sapiens, UniProt O94806)",100
"GSK3B (Homo sapiens, UniProt P49841)",100
"MYLK2 (Homo sapiens, UniProt Q9H1R3)",100
"CHUK (Homo sapiens, UniProt O15111)",92
"Non-receptor tyrosine-protein kinase TYK2, JH1 (TYK2, Homo sapiens, UniProt P29597)",100
"EGFR (Homo sapiens, UniProt P00533, del746-750)",98
"STK32C (Homo sapiens, UniProt Q86UX6)",63
"CSNK1A1L (Homo sapiens, UniProt Q8N752)",100

# Series 2 — technique: protein-binding microarray; molecule type: double-stranded DNA, one strand shown; sample: in vitro; tested at: 0.8 µM; notes: whole 60-bp probe, no competitor; direction: higher = stronger binding
# Target: Centromere-binding protein 1, full length, N-terminal tag (CBF1, Saccharomyces cerevisiae, UniProt P17106, residues 1-351)
# UniProt P17106, sequence (whole entry, looked up): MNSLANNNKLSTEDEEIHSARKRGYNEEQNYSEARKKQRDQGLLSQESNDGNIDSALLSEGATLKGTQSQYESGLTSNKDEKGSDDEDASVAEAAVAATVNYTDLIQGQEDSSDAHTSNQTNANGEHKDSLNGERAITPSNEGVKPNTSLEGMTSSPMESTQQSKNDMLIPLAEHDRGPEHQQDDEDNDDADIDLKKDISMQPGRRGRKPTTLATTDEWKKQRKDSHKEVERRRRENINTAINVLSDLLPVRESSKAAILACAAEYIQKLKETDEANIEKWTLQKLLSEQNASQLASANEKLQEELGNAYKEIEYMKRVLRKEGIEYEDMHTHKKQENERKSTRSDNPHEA
Sequence,fluorescence intensity [a.u.]
CTAAAATTGAACATTCAGGAGATTTTTGAATGCTTCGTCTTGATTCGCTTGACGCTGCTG,487
TGTACGAAGCTATAGCACGTGACTATAGTAGTTAGGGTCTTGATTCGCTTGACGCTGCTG,24800
GAAGCTGATTAACGTGACGCTAAAAAAATACCATAGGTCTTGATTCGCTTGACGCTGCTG,1790
TGTACGAAGCTATCGCATGTGATTATAGTAGTTAGGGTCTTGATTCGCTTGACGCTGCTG,1390
CTATTGACCCAGCGTGACGACAGTAGACTGTAATTCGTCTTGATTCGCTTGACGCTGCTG,655
TGTACGAAGCTATTTCACGTCATTATAGTAGTTAGGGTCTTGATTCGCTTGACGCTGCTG,568
CTACTCATATATGGTCACGTGGCTCGATGTTTATTCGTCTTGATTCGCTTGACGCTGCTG,25200
CCTAACTACTATAGCGAGCACGTATAGCTTCGTACAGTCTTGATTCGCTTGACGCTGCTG,531

# Series 3 — effect on: enzyme activity; mode: inhibitor; tested at: 0.5 µM; baseline: control
# SMILES: Cc1nc(Nc2ncc(C(=O)Nc3c(C)cccc3Cl)s2)cc(N2CCN(CCO)CC2)n1
target,remaining activity
"ABL2 (Homo sapiens, UniProt P42684)",2.74%
"ACVR1B (Homo sapiens, UniProt P36896)",109%
"MAPKAPK2 (Homo sapiens, UniProt P49137)",99.5%
"FRK (Homo sapiens, UniProt P42685)",-0.878%
"RPS6KA2 (Homo sapiens, UniProt Q15349)",93.9%
"MAP3K5 (Homo sapiens, UniProt Q99683)",97.3%
"EPHA3 (Homo sapiens, UniProt P29320)",3.46%
"MST1R (Homo sapiens, UniProt Q04912)",106%
"ULK2 (Homo sapiens, UniProt Q8IYT8)",94.2%
"FGFR3 (Homo sapiens, UniProt P22607)",86.2%
"CSNK1G2 (Homo sapiens, UniProt P78368)",97.2%
"TEK (Homo sapiens, UniProt Q02763)",91.3%
"MAP2K2 (Homo sapiens, UniProt P36507)",102%

# Other studies, line by line — technique: cross-linking MS; sample: cell fractions
Substance,partner,conditions,cross-linked residues
"SRFBP1 (Homo sapiens, UniProt Q8NEF9)","DDX49 (Homo sapiens, UniProt Q9Y6V7)",together with: DSSO,K86 to K229
"TBL3 (Homo sapiens, UniProt Q12788)","WDR36 (Homo sapiens, UniProt Q8NI36)",together with: DMTMM,E765 to K716
"CFL1 (Homo sapiens, UniProt P23528)","THUMPD2 (Homo sapiens, UniProt Q9BTF0)",together with: DHSO,E28 to D119
"CCDC22 (Homo sapiens, UniProt O60826)","VPS35L (Homo sapiens, UniProt Q7Z3J2)",together with: DSSO,K519 to K630

# A few entries again (series 1):
target,remaining binding [%]
"GSK3B (Homo sapiens, UniProt P49841)",100
"STK32C (Homo sapiens, UniProt Q86UX6)",63
